# Measured values from different studies.
# Protocols differ between the studies behind these lines.
Compound,test system,conditions,endpoint,result
Nc1ccn(C[C@@H](CO)OCP(=O)(O)OCCCS(=O)(=O)CCCCCCCCCCCCC2CCC2)c(=O)n1,"mouse, plasma","intravenous, 3 mg/kg, single dose",Vd,4.2 L/kg
CN1/C(=C/C=C/c2cc(-c3ccccc3)cc(-c3ccccc3)[o+]2)C(C)(C)c2ccccc21,"male CD-1 mouse, plasma","intravenous, 1 mg/kg, single dose",Vd,12.2 L/kg
COC1C=COC2(C)Oc3c(C)c(O)c4c(c3C2=O)C2=NC3(CCN(CC(C)C)CC3)NC2=C(NC(=O)C(C)=CC=CC(C)C(O)C(C)C(O)C(C)C(OC(=O)Nc2cnccn2)C1C)C4=O (stereo not shown),"female CD-1 mouse, plasma","intravenous, 5 mg/kg",Vd,0.8 L/kg
C[C@H]1CN(C(=O)c2cn(-c3ccnc(N)n3)c3cc(C#CC4(O)CCCCC4)ccc23)CCN1,"CD-1 mouse, plasma","intravenous, 1 mg/kg",Vd,2.57 L/kg
CCOc1c(C(C)(C)O)sc2cnc(Nc3ccc(N4CCC(N5CC6(COC6)C5)CC4)cc3OC)nc12,"male C57BL/6 mouse, plasma","intravenous, 3 mg/kg",Vd,8.63 L/kg
COC(=O)c1ccc2c(c1)NC(=O)/C2=C(\Nc1ccc2c(c1)CCN2C(=O)CN1CCOCC1)c1ccccc1,"CD-1 mouse, blood","intravenous, 10 mg/kg",Vd,1.79 L/kg
COC1C=COC2(C)Oc3c(C)c(O)c4c(c3C2=O)C2=NC3(CCN(CC(C)C)CC3)NC2=C(NC(=O)C(C)=CC=CC(C)C(O)C(C)C(O)C(C)C(OC(=O)Nc2cccnn2)C1C)C4=O (stereo not shown),"female CD-1 mouse, plasma","intravenous, 5 mg/kg",Vd,0.5 L/kg
O=C(OCc1cccc(O)c1O)c1ccc(O)c(CO)c1,"male CD-1 mouse, plasma","intravenous, 10 mg/kg",Vd,0.343 L/kg
Cc1ccc(CNC(=O)Cc2ccc(-c3ccc(OCCN4CCOCC4)cc3)cn2)cc1,"CD-1 mouse, plasma","intravenous, 2 mg/kg",Vd,1.89 L/kg
Nc1ccn(C[C@@H](CO)OCP(=O)(O)OCCCS(=O)(=O)CCCCCCCCCCC2CCC2)c(=O)n1,"mouse, plasma","intravenous, 3 mg/kg, single dose",Vd,2.8 L/kg
COC1C=COC2(C)Oc3c(C)c(O)c4c(c3C2=O)C2=NC3(CCN(CC(C)C)CC3)NC2=C(NC(=O)C(C)=CC=CC(C)C(O)C(C)C(O)C(C)C(OC(=O)c2cccnc2)C1C)C4=O (stereo not shown),"female CD-1 mouse, plasma","intravenous, 5 mg/kg",Vd,1.8 L/kg
O=C1OC2(c3ccccc31)c1cc(I)c(O)c(I)c1Oc1c2cc(I)c(O)c1I,"female C57BL/6 mouse, plasma","intraperitoneal, 50 mg/kg",Vd/F,2.8 L/kg
Cc1cc(O)cc(O)c1C(=O)c1c2c3c(c(O)cc(C)c3oc1=O)C(=O)c1c(O)cc(O)cc1-2,"male Kunming mouse, plasma","intraperitoneal, 15 mg/kg",Vd/F,0.328 L/kg

# Some of these lines once more:
Compound,test system,conditions,endpoint,result
COC1C=COC2(C)Oc3c(C)c(O)c4c(c3C2=O)C2=NC3(CCN(CC(C)C)CC3)NC2=C(NC(=O)C(C)=CC=CC(C)C(O)C(C)C(O)C(C)C(OC(=O)c2cccnc2)C1C)C4=O (stereo not shown),"female CD-1 mouse, plasma","intravenous, 5 mg/kg",Vd,1.8 L/kg
